Assay results collected from several papers.
Numbered parts are unrelated; each lists some results of a single study.
UniProt P22607, sequence (whole entry, looked up): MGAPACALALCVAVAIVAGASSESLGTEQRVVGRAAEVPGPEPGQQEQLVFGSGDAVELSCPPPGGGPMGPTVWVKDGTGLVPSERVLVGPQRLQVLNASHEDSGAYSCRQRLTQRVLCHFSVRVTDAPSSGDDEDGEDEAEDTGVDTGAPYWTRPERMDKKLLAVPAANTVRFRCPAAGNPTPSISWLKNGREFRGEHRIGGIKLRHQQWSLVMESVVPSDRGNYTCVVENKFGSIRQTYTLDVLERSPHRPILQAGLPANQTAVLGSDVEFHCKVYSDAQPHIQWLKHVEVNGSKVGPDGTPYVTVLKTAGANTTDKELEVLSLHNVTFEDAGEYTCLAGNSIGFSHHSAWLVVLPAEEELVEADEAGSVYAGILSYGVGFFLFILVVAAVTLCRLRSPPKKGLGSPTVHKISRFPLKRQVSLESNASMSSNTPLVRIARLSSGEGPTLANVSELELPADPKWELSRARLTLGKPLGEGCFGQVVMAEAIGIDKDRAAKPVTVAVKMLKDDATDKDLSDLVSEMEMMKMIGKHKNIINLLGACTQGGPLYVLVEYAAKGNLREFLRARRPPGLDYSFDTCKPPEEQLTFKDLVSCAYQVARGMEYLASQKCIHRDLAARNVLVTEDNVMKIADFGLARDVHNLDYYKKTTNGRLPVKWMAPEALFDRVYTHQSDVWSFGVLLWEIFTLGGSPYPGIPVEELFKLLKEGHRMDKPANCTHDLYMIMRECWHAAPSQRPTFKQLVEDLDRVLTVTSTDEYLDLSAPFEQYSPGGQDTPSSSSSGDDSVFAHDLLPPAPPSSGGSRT
UniProt P42684, sequence (whole entry, looked up): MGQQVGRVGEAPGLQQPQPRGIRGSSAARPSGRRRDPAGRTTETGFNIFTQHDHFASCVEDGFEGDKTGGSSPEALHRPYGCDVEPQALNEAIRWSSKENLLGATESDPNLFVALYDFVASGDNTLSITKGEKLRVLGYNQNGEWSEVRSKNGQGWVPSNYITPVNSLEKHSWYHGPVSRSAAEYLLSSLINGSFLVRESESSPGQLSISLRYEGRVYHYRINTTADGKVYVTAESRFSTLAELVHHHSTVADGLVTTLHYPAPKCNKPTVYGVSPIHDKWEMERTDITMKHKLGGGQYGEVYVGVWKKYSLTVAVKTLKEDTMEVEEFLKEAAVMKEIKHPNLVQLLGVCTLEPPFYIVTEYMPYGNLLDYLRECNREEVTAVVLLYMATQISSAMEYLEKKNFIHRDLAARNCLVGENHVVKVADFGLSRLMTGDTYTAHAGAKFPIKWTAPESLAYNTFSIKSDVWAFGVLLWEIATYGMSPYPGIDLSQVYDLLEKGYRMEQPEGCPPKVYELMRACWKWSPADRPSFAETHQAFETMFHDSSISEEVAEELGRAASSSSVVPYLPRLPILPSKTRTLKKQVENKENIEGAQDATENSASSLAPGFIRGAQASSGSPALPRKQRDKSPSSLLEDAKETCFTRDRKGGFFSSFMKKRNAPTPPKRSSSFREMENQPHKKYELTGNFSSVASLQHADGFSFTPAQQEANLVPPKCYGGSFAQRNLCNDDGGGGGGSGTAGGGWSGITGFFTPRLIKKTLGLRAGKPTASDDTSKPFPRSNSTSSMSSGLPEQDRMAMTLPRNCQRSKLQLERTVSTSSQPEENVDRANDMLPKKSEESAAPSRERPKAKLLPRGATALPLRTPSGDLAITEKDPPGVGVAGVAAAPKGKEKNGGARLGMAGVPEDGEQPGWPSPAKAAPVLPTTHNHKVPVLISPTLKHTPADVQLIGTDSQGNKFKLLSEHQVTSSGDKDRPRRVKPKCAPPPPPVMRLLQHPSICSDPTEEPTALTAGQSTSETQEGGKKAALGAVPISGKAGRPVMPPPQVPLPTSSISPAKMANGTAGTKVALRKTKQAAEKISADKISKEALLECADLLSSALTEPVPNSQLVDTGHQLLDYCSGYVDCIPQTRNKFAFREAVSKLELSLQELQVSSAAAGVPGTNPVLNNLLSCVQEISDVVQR
UniProt Q92772, sequence (whole entry, looked up): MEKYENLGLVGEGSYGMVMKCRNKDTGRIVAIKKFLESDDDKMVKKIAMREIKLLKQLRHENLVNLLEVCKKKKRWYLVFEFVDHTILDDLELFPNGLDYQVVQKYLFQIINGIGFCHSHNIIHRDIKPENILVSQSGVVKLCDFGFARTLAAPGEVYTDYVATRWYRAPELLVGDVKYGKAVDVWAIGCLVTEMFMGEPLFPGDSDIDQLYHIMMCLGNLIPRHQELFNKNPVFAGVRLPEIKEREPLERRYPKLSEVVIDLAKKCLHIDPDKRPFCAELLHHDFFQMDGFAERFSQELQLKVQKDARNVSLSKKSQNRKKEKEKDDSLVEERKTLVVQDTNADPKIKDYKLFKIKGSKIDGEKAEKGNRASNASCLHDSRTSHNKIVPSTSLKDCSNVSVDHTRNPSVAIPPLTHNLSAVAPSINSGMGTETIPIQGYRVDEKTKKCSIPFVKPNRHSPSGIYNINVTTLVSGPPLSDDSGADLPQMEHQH
UniProt Q8TD19, sequence (whole entry, looked up): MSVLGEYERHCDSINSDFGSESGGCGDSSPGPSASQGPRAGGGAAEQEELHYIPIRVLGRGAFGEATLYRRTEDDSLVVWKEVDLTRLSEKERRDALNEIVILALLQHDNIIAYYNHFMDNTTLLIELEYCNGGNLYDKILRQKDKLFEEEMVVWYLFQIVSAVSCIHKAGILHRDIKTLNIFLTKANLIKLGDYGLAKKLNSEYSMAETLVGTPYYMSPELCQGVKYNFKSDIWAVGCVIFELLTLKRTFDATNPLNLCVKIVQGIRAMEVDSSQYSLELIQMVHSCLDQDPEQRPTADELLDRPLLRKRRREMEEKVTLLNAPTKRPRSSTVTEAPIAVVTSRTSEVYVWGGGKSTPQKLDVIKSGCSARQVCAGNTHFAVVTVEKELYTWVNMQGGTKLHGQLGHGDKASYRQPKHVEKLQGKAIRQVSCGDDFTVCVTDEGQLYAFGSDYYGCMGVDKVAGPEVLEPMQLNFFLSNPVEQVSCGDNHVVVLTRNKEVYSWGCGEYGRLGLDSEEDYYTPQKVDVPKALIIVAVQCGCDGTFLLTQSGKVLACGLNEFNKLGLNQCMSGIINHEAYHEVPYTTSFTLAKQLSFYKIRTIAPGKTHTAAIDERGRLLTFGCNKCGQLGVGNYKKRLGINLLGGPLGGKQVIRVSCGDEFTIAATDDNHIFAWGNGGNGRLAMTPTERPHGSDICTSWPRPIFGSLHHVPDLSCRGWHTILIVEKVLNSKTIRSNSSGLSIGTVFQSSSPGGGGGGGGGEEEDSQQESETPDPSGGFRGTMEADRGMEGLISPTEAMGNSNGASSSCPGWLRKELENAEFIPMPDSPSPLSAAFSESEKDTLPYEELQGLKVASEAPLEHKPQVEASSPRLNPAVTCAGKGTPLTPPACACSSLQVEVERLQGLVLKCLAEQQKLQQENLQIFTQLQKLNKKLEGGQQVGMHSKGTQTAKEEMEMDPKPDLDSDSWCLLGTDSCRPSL
UniProt Q8TDX7, sequence (whole entry, looked up): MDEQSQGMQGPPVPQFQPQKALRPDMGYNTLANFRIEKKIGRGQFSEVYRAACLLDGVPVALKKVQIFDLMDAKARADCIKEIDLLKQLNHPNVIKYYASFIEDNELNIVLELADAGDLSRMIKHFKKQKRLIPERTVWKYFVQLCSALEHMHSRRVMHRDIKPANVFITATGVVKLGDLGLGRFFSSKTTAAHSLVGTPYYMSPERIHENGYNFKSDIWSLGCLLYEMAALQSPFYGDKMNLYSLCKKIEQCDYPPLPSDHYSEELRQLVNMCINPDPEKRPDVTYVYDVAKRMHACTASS
UniProt O75914, sequence (whole entry, looked up): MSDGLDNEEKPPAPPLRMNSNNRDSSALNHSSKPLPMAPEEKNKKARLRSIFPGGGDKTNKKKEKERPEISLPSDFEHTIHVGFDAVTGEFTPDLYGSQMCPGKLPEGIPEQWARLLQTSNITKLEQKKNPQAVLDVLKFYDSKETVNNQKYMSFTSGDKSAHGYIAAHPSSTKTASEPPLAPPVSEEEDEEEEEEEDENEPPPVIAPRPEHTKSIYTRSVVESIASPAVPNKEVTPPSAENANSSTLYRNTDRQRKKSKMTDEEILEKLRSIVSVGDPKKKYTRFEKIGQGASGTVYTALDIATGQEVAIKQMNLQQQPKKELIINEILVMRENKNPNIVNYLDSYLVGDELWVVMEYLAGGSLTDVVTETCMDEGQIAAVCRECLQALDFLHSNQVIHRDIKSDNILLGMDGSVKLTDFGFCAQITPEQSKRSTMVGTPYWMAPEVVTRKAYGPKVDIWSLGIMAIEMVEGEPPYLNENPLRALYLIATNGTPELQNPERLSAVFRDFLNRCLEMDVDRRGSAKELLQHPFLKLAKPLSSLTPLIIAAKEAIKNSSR
UniProt P31152, sequence (whole entry, looked up): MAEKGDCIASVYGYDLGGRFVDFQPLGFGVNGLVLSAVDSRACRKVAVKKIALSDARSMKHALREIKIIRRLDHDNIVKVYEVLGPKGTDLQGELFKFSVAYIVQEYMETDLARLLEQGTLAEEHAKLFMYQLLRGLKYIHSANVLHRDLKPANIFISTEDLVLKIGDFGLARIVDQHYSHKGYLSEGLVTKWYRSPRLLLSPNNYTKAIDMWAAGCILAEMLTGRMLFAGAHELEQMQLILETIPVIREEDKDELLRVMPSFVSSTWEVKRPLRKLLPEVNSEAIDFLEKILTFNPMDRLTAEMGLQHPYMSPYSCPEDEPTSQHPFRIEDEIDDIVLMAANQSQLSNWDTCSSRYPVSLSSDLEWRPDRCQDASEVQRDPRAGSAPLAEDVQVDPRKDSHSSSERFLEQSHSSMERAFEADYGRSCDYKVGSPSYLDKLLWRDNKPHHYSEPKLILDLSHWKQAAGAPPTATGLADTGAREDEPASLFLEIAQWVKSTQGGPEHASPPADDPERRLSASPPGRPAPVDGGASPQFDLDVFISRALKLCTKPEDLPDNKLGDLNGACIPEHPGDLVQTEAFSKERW

Set 1
Host: mouse
Sample: microsomes or S9
Concentration: 2 µM
Time: 0.5 h
`COc1cc(Br)c(S(=O)(=O)NC2CCN(S(=O)(=O)CCN3CCCCC3)CC2)cc1OC` has a remaining compound of 0.059%.
With `Cc1c[nH]c(CN2C[C@H]3CC[C@@H]2CN(C(=O)c2ccccc2)C3)c(C)c1=O` the remaining compound was 86.9%.
The remaining compound of `COC(=O)c1c(C)[nH]c(C(=O)CN2CCCC2c2nc3ccccc3s2)c1C` (centres unmarked) is reported as 0.758%.
`Cc1cc(C)c(S(=O)(=O)N2CCCCC2)c(C)c1N(C)S(C)(=O)=O` gave a remaining compound of 1.77%.
`CC(C)c1nnc(-c2cccnc2N2CCN(C(=O)C3COc4ccccc4O3)CC2)o1` (centres unmarked) has a remaining compound of 0.919%.

Set 2
Cell line: mouse MPNST tumor cells
Method: high-content nuclear imaging
Refers to: cell number
Concentration: 10 µM
Time: 12 h
Notes: mean of 2 replicates
Reference: plate mean
Reading: higher = more cells
`CCC(C)CNCC(=O)N1CCc2sccc2C1COc1cccc(C)c1` (centres unmarked) has a nuclei count of -2.8 z-score.
The nuclei count of `CCc1ccc(C=CC(=O)Nc2ccc(C(C)=O)cc2)o1` is reported as 1.87 z-score.
For `NS(=O)(=O)c1cc2c(cc1Cl)N=CNS2(=O)=O`, the nuclei count was 2.52 z-score.
The nuclei count of `COc1ccc(S(=O)(=O)Nc2c(C)cc(C)cc2C)cc1` is reported as 1.45 z-score.
The nuclei count of `CCC(CC=Cc1ccccc1)(c1ccccc1)N(C)CC1CC1` (single isomer, unassigned; (+)) is reported as 0.00149 z-score.
`CC(C)(O)C(=O)N1CCN(c2ccc(C(F)(F)F)c(C3=C(c4c[nH]c5ccccc45)C(=O)NC3=O)c2)CC1` gave a nuclei count of -1.06 z-score.

Set 3
Cell line: A-375
Concentration: 100 µM
Time: 18 h
`Cc1onc(-c2c(Cl)cccc2Cl)c1C(=O)N[C@@H]1C(=O)N2[C@@H]1SC(C)(C)[C@@H]2C(=O)O` gave a viability of 95%.
`CC(=O)Oc1cc(C(C)C)c(OCCN(C)C)cc1C` has a viability of 82.9%.
With `C[C@H]1CN(C[C@H](Cc2ccccc2)C(=O)NCC(=O)O)CC[C@@]1(C)c1cccc(O)c1` the viability was 103%.

Set 4
SMILES: CNC(=O)c1ccc(Nc2ncc(C(F)(F)F)c(NCc3nccnc3N(C)S(C)(=O)=O)n2)cc1
Read-out: cell-free assay
Method: competition with immobilised ligand
Concentration: 0.1 µM
It gave 70% for remaining binding (Serine/threonine-protein kinase Nek7 (NEK7, Homo sapiens, UniProt Q8TDX7)).
It gave 80% for remaining binding (Serine/threonine-protein kinase Nek9 (NEK9, Homo sapiens, UniProt Q8TD19)).
It gave 79% for remaining binding (Cyclin-dependent kinase-like 2 (CDKL2, Homo sapiens, UniProt Q92772)).
Receptor-type tyrosine-protein kinase FLT3 (FLT3, Homo sapiens, UniProt P36888, D835V/ITD) — remaining binding: 14%.
Tyrosine-protein kinase ABL1, non-phosphorylated (ABL1, Homo sapiens, UniProt P00519, Q252H) — remaining binding: 98%.
For Mitogen-activated protein kinase 3 (MAPK3, Homo sapiens, UniProt P27361): remaining binding read 86%.
It gave 100% for remaining binding (Serine/threonine-protein kinase PAK 3 (PAK3, Homo sapiens, UniProt O75914)).
The remaining binding was 89% (Fibroblast growth factor receptor 1 (FGFR1, Homo sapiens, UniProt P11362)).
It gave 100% for remaining binding (Phosphatidylinositol 4,5-bisphosphate 3-kinase catalytic subunit alpha isoform (PIK3CA, Homo sapiens, UniProt P42336, C420R)).
For Cyclin-dependent kinase-like 3 (CDKL3, Homo sapiens, UniProt Q8IVW4): remaining binding read 92%.
The remaining binding was 100% (Serine/threonine-protein kinase D2 (PRKD2, Homo sapiens, UniProt Q9BZL6)).
It gave 83% for remaining binding (Mitogen-activated protein kinase kinase kinase 12 (MAP3K12, Homo sapiens, UniProt Q12852)).
The remaining binding was 76% (Mitogen-activated protein kinase 11 (MAPK11, Homo sapiens, UniProt Q15759)).
For Serine/threonine-protein kinase Nek6 (NEK6, Homo sapiens, UniProt Q9HC98): remaining binding read 81%.
It gave 83% for remaining binding (Glycogen synthase kinase-3 alpha (GSK3A, Homo sapiens, UniProt P49840)).
For Tyrosine-protein kinase ABL2 (ABL2, Homo sapiens, UniProt P42684): remaining binding read 93%.
Atypical kinase COQ8A, mitochondrial (COQ8A, Homo sapiens, UniProt Q8NI60) — remaining binding: 98%.
Ribosomal protein S6 kinase alpha-3, C-terminal kinase domain (RPS6KA3, Homo sapiens, UniProt P51812) — remaining binding: 100%.
For Hepatocyte growth factor receptor (MET, Homo sapiens, UniProt P08581, M1250T): remaining binding read 63%.
It gave 66% for remaining binding (Serine/threonine-protein kinase MARK2 (MARK2, Homo sapiens, UniProt Q7KZI7)).
For Mitogen-activated protein kinase kinase kinase 6 (MAP3K6, Homo sapiens, UniProt O95382): remaining binding read 90%.
The remaining binding was 87% (Mitogen-activated protein kinase 4 (MAPK4, Homo sapiens, UniProt P31152)).
The remaining binding was 77% (Casein kinase I isoform alpha-like (CSNK1A1L, Homo sapiens, UniProt Q8N752)).
Fibroblast growth factor receptor 3 (FGFR3, Homo sapiens, UniProt P22607) — remaining binding: 78%.
Platelet-derived growth factor receptor alpha (PDGFRA, Homo sapiens, UniProt P16234) — remaining binding: 77%.

Set 5
Method: PRP chromatography estimate
Sample: 1,9-decadiene/PBS
pH: 7.4
`CC(C)C[C@@H]1NC(=O)[C@H](C(C)C)NC(=O)[C@H](Cc2cscn2)NC(=O)[C@H](CCC(=O)N2CCCC2)NC(=O)[C@@H](CCC(=O)N2CCCC2)NC(=O)[C@H](CC(C)C)NC(=O)[C@@H](CC(C)C)NC1=O` has a logD of -1.96.
For `CCC[C@H]1NC(=O)CSC[C@@H](C(=O)OCC)N(C)C(=O)[C@H](CC(C)C)NC(=O)[C@H](C)N(C)C(=O)[C@H](CC(C)C)NC(=O)[C@H](C)N(C)C(=O)[C@@H]2CCCN2C(=O)[C@@H](CC(C)C)NC(=O)CN(CCC)C1=O`, the logD was 0.429.
`CC(C)C[C@@H]1NC(=O)[C@H](CC(C)C)NC(=O)[C@H](CC(C)C)NC(=O)[C@H](C(C)C)NC(=O)[C@H](C)NC(=O)[C@@H](CC(C)C)NC(=O)[C@H](C)NC1=O` has a logD of -0.717.
`CCC[C@H]1NC(=O)CSC[C@@H](C(=O)OCC)N(C)C(=O)[C@H](CC(C)C)NC(=O)[C@@H](C)N(C)C(=O)[C@H](CC(C)C)NC(=O)[C@H](C)N(C)C(=O)[C@@H](C)N(C)C(=O)[C@@H](CC(C)C)NC(=O)CN(CCC)C1=O` has a logD of 0.399.
For `CC(C)C[C@@H]1NC(=O)[C@H](CC(C)C)NC(=O)[C@H](CC(C)C)NC(=O)[C@H](CC(C)C)NC(=O)[C@@H](Cc2cscn2)NC(=O)[C@H](Cc2cscn2)NC(=O)[C@H](CCC(=O)N2CCCC2)NC1=O`, the logD was -1.26.

Set 6
Target: panel of 300 human kinases
Concentration: 0.5 µM
Reading: higher = more selective
`Ic1cccc(CSc2nnc(-c3ccncc3)o2)c1` has a Gini score of 0.71.
`O=C1Nc2ccc(Cl)cc2C1=Cc1cc(Cl)c(O)c(Cl)c1` has a Gini score of 0.6.
With `O=c1cc(-c2cccc3c2Sc2ccccc2S3)oc(N2CCOCC2)c1` the Gini score was 0.74.
`CCc1[nH]c(-c2ccc(OC)cc2)nc1-c1ccncc1` gave a Gini score of 0.75.
`CCN(CC)CCNC(=O)c1c(C)[nH]c(/C=C2\C(=O)Nc3ccc(Cl)cc32)c1C` gave a Gini score of 0.5.

Mixed results
The inhibition of `Cl.O=C1[C@H]2CCCC[C@H]2C(=O)N1CCCCN1CCN(c2nsc3ccccc23)CC1` is reported as 99.3% (Sarcocystis neurona; GFP/FLUC expressing; 10 µM, confirmation screen).

Some of these lines once more (set 4):
The remaining binding was 76% (Mitogen-activated protein kinase 11 (MAPK11, Homo sapiens, UniProt Q15759)).
For Serine/threonine-protein kinase Nek6 (NEK6, Homo sapiens, UniProt Q9HC98): remaining binding read 81%.
It gave 83% for remaining binding (Glycogen synthase kinase-3 alpha (GSK3A, Homo sapiens, UniProt P49840)).
For Tyrosine-protein kinase ABL2 (ABL2, Homo sapiens, UniProt P42684): remaining binding read 93%.
